Assay results from different studies.
Lines come from different studies, so protocols differ. Values joined by “and” are separate records of one study, mostly repeats; a detail may differ. ± marks the error that the study gave.

| SMILES | target | assay | system | setting | how to read | quantity | value |
| --- | --- | --- | --- | --- | --- | --- | --- |
| Cc1cc(O)cc(C)c1C[C@H](N)C(=O)N[C@H](CCCNC(=N)N)C(=O)N[C@@H](Cc1ccccc1)C(=O)N[C@@H](CCCCN)C(=O)NNC(=O)[C@H](Cc1ccccc1)NC(=O)[C@H](CC1CCCCC1)NC[C@@H]1Cc2ccccc2CN1C(=O)[C@@H](N)Cc1ccc(O)cc1 | delta opioid receptor (mouse) | antagonist | mouse vas deferens | together with: DPDPE | – | Ke | 11.2 ± 0.3 nM |
| C#CCNC(=O)CN(Cc1ccc(-c2ccc(F)c(CN3CCS(=O)(=O)CC3)n2)cc1)C(=O)c1ccc(C2(C(F)(F)F)N=N2)cc1 | mitochondrial carnitine/acylcarnitine carrier | chemical proteomics | CHO cells overexpressing CB2 | 10 µM | relative to: untreated | photoaffinity enrichment | > 13 fold |
| CC[C@H](C)[C@H](NC(=O)[C@H](CC(C)C)NC(=O)[C@H](CC(C)C)NC(=O)[C@H](CC(=O)O)NC(=O)[C@@H](NC(=O)[C@H](CCC(=O)O)NC(=O)[C@H](CCCCN)NC(=O)[C@H](Cc1ccc(O)cc1)NC(=O)[C@H](CCCCN)NC(=O)[C@H](Cc1c[nH]cn1)NC(=O)CNC(=O)CN)[C@@H](C)O)C(=O)N[C@@H](CC(C)C)C(=O)N[C@@H](Cc1ccccc1)C(=O)N[C@@H](CCCCN)C(=O)N[C@@H](CC(=O)O)C(=O)N[C@@H](CC(=O)O)C(=O)N[C@@H](Cc1ccc(O)cc1)C(=O)N[C@@H](Cc1ccccc1)C(=O)N[C@@H](C)C(=O)N[C@@H](CCCCN)C(=O)N[C@@H](CCCCN)C(=O)N[C@@H](CC(N)=O)C(=O)N[C@@H](CCC(=O)O)C(=O)N[C@@H](CCC(=O)O)C(=O)N[C@@H](CCCNC(=N)N)C(=O)N[C@@H](CCCCN)C(N)=O | HCV IRES RNA | RNA cleavage, fluorescence | hepatitis C virus | 10 µM, together with: H2O2 and ascorbate 1 mM, fluorescein-labelled HCV RNA 1 µM | – | initial rate | 509 ± 122 nM/min |
| COc1ccccc1-c1n[nH]c2nc(N[C@H]3CC[C@H](NS(=O)(=O)CC(C)C)CC3)ncc12 | Leishmania donovani LINJ.11.1000 | bead binding competition | Leishmania donovani extract | 20 µM | relative to: vehicle | relative abundance | 0.85 |
| CC(C)C[C@H](NC(=O)[C@H](CC(=O)O)NC(=O)[C@@H](NC(=O)[C@H](CCC(=O)O)NC(=O)[C@H](CCCCN)NC(=O)[C@H](Cc1ccc(O)cc1)NC(=O)[C@H](CCCCN)NC(=O)[C@H](Cc1c[nH]cn1)NC(=O)CNC(=O)CN)[C@@H](C)O)C(N)=O | HCV IRES RNA | RNA cleavage, MALDI-TOF mass spectrometry | hepatitis C virus | – | – | initial rate | 4 ± 1.8 %/min |
| N#Cc1ccccc1CC(N)C(=O)NC(Cc1ccc(Cl)cc1Cl)C(=O)NC(CC(=O)NCCCc1cccnc1)Cc1ccc(F)cc1 (stereo not drawn) | human protease panel | enzyme activity, inhibitor | – | off-target | – | IC50 | > 10 µM |
| CC[C@@H]1CN2CCc3c([nH]c4cccc(OC)c34)[C@@H]2C[C@@H]1/C(=C\OC)C(=O)OC | rabbit anti-mitragynine polyclonal IgG | antigen binding, competitor, competitive indirect ELISA | 5% methanol | 60 min antibody-standard, 30 min antibody-antigen incubation | – | IC50 | 0.5 µg/mL and 0.6 µg/mL |
| Cc1ccc2c(n1)c(-c1cccc(S(C)(=O)=O)c1)c(C)n2C/C(F)=C/CN | GABAA receptor (rat) | binding, radioligand binding | rat tissue | 10 µM, Ro-15-1788 | – | inhibition | 17% |
| Nc1ncc(-c2cc(-c3cnn(CC(F)(F)F)c3)ncc2F)nc1C(=O)NC1CNCC(F)C1 (stereo not drawn) | ABL1(T315I)-nonphosphorylated | KINOMEscan competition binding | – | 1 µM | relative to: DMSO control | remaining binding | 100% |

Excerpt of the above:
| SMILES | target | assay | system | setting | how to read | quantity | value |
| --- | --- | --- | --- | --- | --- | --- | --- |
| COc1ccccc1-c1n[nH]c2nc(N[C@H]3CC[C@H](NS(=O)(=O)CC(C)C)CC3)ncc12 | Leishmania donovani LINJ.11.1000 | bead binding competition | Leishmania donovani extract | 20 µM | relative to: vehicle | relative abundance | 0.85 |
